Measured values of several laboratories.
Lines come from different studies, so protocols differ. Several values in a cell are separate wells, animals, samples, runs or records. ± marks the error that the study gave.
nanI: Sialidase (nanI, Clostridium perfringens, UniProt A0A0H2YQR1)
Polyprotein P1234 nsP2 protease domain: Polyprotein P1234, nsP2 protease domain (Chikungunya virus, UniProt Q5XXP4)
Sequence of UniProt Q5XXP4 (whole entry, looked up): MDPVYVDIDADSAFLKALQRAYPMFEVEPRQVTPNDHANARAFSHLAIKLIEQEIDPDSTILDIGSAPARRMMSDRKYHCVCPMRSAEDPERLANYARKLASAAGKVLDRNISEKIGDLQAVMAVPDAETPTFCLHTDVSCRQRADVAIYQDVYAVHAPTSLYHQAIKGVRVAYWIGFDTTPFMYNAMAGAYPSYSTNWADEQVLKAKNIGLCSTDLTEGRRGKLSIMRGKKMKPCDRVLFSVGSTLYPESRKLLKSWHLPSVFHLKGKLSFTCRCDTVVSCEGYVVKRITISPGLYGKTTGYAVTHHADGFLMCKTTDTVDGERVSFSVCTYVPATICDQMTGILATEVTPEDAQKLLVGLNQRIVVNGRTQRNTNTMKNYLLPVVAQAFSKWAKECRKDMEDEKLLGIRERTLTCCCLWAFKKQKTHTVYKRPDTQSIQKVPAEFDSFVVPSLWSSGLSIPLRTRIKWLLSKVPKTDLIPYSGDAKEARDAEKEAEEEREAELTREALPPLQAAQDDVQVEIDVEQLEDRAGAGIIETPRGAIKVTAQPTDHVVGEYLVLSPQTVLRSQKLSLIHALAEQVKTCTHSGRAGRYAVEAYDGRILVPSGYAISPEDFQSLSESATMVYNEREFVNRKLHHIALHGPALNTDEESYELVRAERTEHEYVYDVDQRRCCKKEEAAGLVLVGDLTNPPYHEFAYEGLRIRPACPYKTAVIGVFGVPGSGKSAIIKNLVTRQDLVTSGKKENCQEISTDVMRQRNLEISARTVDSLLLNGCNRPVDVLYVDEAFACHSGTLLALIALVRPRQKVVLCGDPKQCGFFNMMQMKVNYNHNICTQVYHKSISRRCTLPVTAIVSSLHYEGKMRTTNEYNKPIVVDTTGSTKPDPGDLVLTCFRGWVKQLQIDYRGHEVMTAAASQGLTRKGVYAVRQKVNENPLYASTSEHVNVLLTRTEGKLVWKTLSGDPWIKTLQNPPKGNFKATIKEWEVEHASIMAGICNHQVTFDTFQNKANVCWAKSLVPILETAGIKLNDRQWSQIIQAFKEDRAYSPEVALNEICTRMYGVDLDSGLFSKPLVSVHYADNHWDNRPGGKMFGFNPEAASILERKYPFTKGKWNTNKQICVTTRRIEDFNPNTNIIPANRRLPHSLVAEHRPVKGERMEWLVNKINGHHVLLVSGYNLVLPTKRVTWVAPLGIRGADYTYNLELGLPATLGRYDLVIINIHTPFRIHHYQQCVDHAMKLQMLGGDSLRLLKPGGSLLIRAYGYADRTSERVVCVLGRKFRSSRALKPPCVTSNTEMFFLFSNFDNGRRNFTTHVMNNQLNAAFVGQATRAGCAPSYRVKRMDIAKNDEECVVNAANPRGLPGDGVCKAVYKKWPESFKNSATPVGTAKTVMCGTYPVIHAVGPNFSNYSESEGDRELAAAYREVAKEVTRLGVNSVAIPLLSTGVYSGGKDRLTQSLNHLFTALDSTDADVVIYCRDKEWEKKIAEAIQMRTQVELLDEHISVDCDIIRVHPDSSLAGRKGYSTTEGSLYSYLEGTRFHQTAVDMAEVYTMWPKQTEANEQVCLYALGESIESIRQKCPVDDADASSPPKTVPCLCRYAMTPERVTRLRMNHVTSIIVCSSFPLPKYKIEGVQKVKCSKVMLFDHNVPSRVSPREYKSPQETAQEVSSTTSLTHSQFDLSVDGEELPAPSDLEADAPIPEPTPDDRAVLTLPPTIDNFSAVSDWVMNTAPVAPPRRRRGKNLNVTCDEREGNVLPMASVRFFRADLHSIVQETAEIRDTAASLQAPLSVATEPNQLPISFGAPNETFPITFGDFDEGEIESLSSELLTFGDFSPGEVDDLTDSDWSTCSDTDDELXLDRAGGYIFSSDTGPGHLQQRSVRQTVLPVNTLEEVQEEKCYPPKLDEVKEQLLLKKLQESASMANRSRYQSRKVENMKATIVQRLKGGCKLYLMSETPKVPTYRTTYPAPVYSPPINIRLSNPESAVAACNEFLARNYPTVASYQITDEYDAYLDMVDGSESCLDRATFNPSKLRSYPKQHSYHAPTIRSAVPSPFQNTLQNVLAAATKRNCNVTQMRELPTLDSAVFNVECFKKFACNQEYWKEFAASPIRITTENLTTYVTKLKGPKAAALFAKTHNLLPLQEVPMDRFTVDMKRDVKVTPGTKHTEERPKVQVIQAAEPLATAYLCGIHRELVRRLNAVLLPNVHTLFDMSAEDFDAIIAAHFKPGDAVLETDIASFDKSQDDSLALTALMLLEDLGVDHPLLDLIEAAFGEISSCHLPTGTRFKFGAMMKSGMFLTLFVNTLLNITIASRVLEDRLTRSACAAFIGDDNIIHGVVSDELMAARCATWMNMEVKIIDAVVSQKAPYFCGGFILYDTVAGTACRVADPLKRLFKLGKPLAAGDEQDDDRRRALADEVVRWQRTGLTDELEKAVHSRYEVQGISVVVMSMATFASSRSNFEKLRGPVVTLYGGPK
Spike glycoprotein: Spike glycoprotein (Severe acute respiratory syndrome coronavirus 2, UniProt P0DTC2)
Sequence of UniProt A0A7H0DNC1 (whole entry, looked up): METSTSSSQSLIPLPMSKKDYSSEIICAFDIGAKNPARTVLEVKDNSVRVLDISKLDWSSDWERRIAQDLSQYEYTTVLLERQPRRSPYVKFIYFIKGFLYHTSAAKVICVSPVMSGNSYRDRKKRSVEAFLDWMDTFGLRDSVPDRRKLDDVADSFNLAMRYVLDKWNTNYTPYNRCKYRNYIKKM
Sequence of UniProt Q81Y92 (whole entry, looked up): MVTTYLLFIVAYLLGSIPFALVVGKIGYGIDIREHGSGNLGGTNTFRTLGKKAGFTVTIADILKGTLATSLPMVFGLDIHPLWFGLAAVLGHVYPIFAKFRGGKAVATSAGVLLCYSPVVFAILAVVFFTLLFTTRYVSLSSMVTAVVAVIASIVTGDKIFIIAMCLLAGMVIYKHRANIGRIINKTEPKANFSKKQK
Sequence of UniProt P20782 (whole entry, looked up): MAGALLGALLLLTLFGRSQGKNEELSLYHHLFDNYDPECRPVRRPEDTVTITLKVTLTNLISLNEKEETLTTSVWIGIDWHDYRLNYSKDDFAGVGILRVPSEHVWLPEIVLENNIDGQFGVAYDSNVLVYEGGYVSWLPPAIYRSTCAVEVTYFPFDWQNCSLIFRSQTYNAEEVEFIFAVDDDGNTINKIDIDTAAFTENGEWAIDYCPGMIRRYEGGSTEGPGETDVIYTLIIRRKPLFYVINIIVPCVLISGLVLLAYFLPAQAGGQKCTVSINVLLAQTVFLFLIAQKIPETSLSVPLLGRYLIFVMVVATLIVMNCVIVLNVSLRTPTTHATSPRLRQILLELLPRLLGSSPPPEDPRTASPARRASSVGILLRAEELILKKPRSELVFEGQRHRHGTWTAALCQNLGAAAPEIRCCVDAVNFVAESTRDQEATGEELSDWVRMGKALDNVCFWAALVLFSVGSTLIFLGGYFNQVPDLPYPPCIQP
Sequence of UniProt P11712 (whole entry, looked up): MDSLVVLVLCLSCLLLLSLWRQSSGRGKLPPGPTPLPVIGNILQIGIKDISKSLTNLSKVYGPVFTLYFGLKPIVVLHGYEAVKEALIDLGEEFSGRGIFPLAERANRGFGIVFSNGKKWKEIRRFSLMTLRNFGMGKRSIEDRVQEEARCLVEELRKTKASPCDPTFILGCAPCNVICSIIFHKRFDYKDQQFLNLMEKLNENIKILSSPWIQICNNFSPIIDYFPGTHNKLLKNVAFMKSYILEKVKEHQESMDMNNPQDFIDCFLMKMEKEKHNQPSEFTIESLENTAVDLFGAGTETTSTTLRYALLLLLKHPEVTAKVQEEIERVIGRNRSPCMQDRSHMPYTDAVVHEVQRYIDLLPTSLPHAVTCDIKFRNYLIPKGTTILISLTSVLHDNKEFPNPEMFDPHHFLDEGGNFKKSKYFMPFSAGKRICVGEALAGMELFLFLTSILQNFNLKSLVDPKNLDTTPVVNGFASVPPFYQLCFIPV
Sequence of UniProt P04756 (whole entry, looked up): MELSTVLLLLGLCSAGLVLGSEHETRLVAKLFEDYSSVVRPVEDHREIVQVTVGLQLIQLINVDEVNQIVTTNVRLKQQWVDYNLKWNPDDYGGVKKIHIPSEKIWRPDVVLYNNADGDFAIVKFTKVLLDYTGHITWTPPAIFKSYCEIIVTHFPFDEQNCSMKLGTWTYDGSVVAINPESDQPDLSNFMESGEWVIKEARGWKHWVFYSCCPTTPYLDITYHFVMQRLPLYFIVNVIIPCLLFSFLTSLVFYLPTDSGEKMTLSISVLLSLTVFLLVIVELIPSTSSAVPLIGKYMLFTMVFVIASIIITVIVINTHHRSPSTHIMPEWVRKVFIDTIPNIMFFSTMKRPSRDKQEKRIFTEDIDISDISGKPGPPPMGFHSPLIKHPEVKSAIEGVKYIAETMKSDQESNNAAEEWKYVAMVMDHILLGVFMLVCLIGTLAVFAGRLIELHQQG
Sequence of UniProt P02716 (whole entry, looked up): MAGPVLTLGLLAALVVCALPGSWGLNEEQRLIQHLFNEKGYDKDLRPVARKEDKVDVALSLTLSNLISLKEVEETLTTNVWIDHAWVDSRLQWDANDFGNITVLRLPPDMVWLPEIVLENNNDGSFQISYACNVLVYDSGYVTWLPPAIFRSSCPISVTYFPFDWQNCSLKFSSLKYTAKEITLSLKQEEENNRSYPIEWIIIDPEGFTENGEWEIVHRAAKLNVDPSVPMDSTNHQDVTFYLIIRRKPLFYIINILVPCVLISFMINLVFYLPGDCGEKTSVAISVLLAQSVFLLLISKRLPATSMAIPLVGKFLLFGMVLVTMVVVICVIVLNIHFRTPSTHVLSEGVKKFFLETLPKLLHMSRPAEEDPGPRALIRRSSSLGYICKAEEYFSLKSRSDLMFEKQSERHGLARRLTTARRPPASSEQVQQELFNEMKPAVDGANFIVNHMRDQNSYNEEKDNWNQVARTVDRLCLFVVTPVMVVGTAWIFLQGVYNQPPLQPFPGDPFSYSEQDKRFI

CC(C)(C)CC(=O)N[C@H]1[C@H]([C@H](O)[C@H](O)CO)OC(C(=O)O)=C[C@@H]1O
IC50 (nanI; enzyme activity, inhibitor): 90000 nM

CC(C)[C@H](NC(=O)[C@H](CCC(N)=O)NC(=O)[C@@H](N)CC(N)=O)C(=O)N[C@@H](CCCCN)C(=O)N[C@@H](Cc1ccccc1)C(=O)N[C@@H](Cc1ccc(O)cc1)C(=O)N[C@@H](Cc1ccccc1)C(=O)N[C@@H](CC(N)=O)C(=O)N[C@@H](CCCCN)C(=O)O
IC50 (HLA class I histocompatibility antigen, A alpha chain (Homo sapiens, UniProt P04439); biochemical): 2.2 nM

CCC(CC)[C@H](NC(C)=O)[C@@H]1[C@H](O)[C@@H](C(=O)O)C[C@H]1N=C(N)N
IC50 (neuraminidase (Influenza A virus, UniProt A0A088CBR8)): 0.28 nM

COc1ccc(-c2cccc(Nc3cc(=O)n(O)c(=O)n3C)c2)cc1
IC50 (Resolvase OPG149 (OPG149, Monkeypox virus, UniProt A0A7H0DNC1)): 242 nM

CCCCCCCCCCCC(=O)C(F)(F)P(=O)(O)O
IC50 (Glycerol-3-phosphate acyltransferase 3 (plsY3, Bacillus anthracis, UniProt Q81Y92); inhibitor): 25000 nM

Cn1cnc(Cn2c(=O)[nH]/c(=N\c3cc4cn(C)nc4cc3Cl)n(Cc3cc(F)c(F)cc3F)c2=O)n1
patients with adverse event (human, normal renal function; oral, 375 mg, hypertriglyceridaemia TEAE, Mild severity): 0%

O=C(CCl)NCC#CC1CCCCO1 (centres unmarked)
IC50 (Polyprotein P1234 nsP2 protease domain; enzyme activity, inhibitor, FRET; 90 min, 30 min preincubation): 1700 ± 100 nM

COc1ccc(/C=N\NC(=O)c2cc(O)c(O)c(O)c2)cc1COc1ccc(C(=O)OCC(C)C)cc1
IC50 (Replicase polyprotein 1ab, nsp13 helicase (rep, Severe acute respiratory syndrome coronavirus 2, UniProt P0DTD1); helicase ATPase activity, inhibitor, Kinase-Glo luminescence; 60 min, with: 2.5 µM ATP): 3000 nM

CCC(CC)[C@H](NC(C)=O)[C@@H]1[C@H](O)[C@@H](C(=O)O)C[C@H]1N=C(N)N
IC50 (Neuraminidase (Influenza A virus, UniProt I3NP73); enzyme activity, inhibitor; swine influenza A virus, H1N1pdm09): 0.09 ± 0.01 nM

O=C(N1CCC2(CC1)C[C@H](CN1CCCCS1(=O)=O)CCO2)C1(c2ccccc2)CCCC1
IC50 (Polyprotein P1234, nsP2 (Chikungunya virus, UniProt Q8JUX6); nsP2 RNA unwinding, inhibitor, FRET strand separation): 130 nM

CCC(C(=O)Nc1ccccn1)n1cccc2nc(SCc3ccc(F)cc3)nc1-2 (centres unmarked)
IC50 (Replicase polyprotein 1ab, papain-like protease (rep, Middle East respiratory syndrome-related coronavirus, UniProt K9N7C7); enzyme activity, inhibitor): > 100000 nM

Nc1ncnc2c([C@@H]3N[C@H](CO)[C@@H](O)[C@H]3O)c[nH]c12
inhibition (Middle East respiratory syndrome-related coronavirus; viral replication; Vero C1008, Jordan N3; 1.6 µM): 6%

C=CS(=O)(=O)CCC(=O)Nc1cccc(Cl)c1-n1cccn1
IC50 (Polyprotein P1234 nsP2 protease domain; protease activity, inhibitor, FRET; 90 min, 30 min preincubation): 16000 ± 2000 nM

CCc1c2c(nc3ccc(OC(=O)N4CCC(N5CCCCC5)CC4)cc13)-c1cc3c(c(=O)n1C2)COC(=O)[C@]3(O)CC
Kd (Spike glycoprotein; binding, BLI): 59800 nM

O=C(CO)N[C@H]1[C@H]([C@H](O)[C@H](O)CO)O[C@](O)(C(=O)O)C[C@@H]1O
IC50 (Spike glycoprotein, with ACE2 (Severe acute respiratory syndrome coronavirus 2, UniProt P0DTC2); binding to human ACE2, inhibitor; SARS-CoV-2): 1.7 nM

CC[C@H](C)[C@H](NC(=O)[C@H](C)NC(=O)CNC(=O)[C@H](CC(N)=O)NC(=O)[C@H](CCC(=O)O)NC(=O)[C@@H](N)CC(C)C)C(=O)N[C@@H](CCCNC(=N)N)C(=O)N[C@H](C(=O)N[C@@H](Cc1ccc(O)cc1)C(=O)O)[C@@H](C)CC
IC50 (HLA class I histocompatibility antigen, B alpha chain, allele B*44:03 (Homo sapiens, UniProt P01889); biochemical): 3.3 nM

CN(C(=O)CC(C)(C)C)[C@H]1[C@H]([C@H](O)[C@H](O)CO)OC(C(=O)O)=C[C@@H]1O
IC50 (nanI; enzyme activity, inhibitor): > 500000 nM

CC[C@H](C)[C@H](NC(=O)[C@H](CCC(=O)O)NC(=O)[C@H](CCCCN)NC(=O)[C@H](CC(C)C)NC(=O)[C@H](CC(N)=O)NC(=O)[C@@H](NC(=O)[C@H](Cc1ccc(O)cc1)NC(=O)[C@H](CO)NC(=O)[C@H](CCC(=O)O)NC(=O)[C@H](CCC(=O)O)NC(=O)[C@H](CC(C)C)NC(=O)[C@H](CCCCN)NC(=O)[C@H](CCCCN)NC(=O)[C@@H](NC(=O)[C@H](C)NC(=O)[C@H](CCC(=O)O)NC(=O)[C@H](CCC(=O)O)NC(=O)[C@H](CC(C)C)NC(=O)[C@H](CCCCN)NC(=O)[C@H](CCCCN)NC(=O)[C@H](CCSC)NC(=O)[C@H](CCC(=O)O)NC(=O)[C@H](CC(=O)O)NC(=O)[C@H](CCC(=O)O)NC(=O)[C@H](CC(C)C)NC(=O)[C@H](CC(=O)O)NC(=O)[C@H](CC(C)C)NC(=O)[C@H](Cc1ccccc1)NC(=O)[C@@H](NC(=O)[C@@H](NC(=O)[C@H](CC(N)=O)NC(=O)[C@@H](NC(=O)[C@H](Cc1ccc(O)cc1)NC(=O)[C@H](CC(=O)O)NC(=O)[C@H](CC(C)C)NC(=O)[C@@H](N)CO)[C@@H](C)CC)C(C)C)[C@@H](C)O)[C@@H](C)CC)[C@@H](C)CC)C(=O)O
IC50 (Spike glycoprotein (S, Human coronavirus 229E, UniProt P15423)): 220 ± 50 nM

CC(C)C[C@H](NC(=O)[C@H](Cc1ccccc1)NC(=O)[C@H](CO)NC(=O)[C@H](CC(N)=O)NC(=O)[C@H](CCCCN)NC(=O)[C@H](Cc1ccccc1)NC(=O)[C@@H](NC(=O)[C@H](C)N)C(C)C)C(=O)NCC(=O)N[C@@H](CCCCN)C(=O)O
IC50 (HLA class I histocompatibility antigen, A alpha chain, allele A*11:01 (Homo sapiens, UniProt P04439); biochemical): 1.5 nM

CNC(=O)[C@@H](NC(=O)[C@H](CC(C)C)[C@H](O)C(=O)NO)C(C)(C)C
remaining activity (Daboia russelii venom proteases (SVMP); protease activity, inhibitor; GA population; 0.01 µM, with: azocasein substrate; baseline: venom alone): 97.3% and 97.6% and 98%

CCCCCc1cc(O)c2c(c1)OC(C)(C)c1ccc(C)cc1-2
IC50 (Sodium channel protein type 10 subunit alpha (Scn10a, Mus musculus, UniProt Q6QIY3); ion current, inhibitor, patch clamp): ~16000 nM

CCC(C(=O)Nc1cc(NC2COC2)ccc1C)n1cccc2nc(SCc3ccc(F)cc3)nc1-2 (centres unmarked)
IC50 (Replicase polyprotein 1ab, papain-like protease (rep, Severe acute respiratory syndrome-related coronavirus, UniProt P0C6X7); enzyme activity): 361 ± 39 nM

CS(=O)(=O)C=CCNC(=O)CCc1nnc(-c2ccccc2)o1
IC50 (Polyprotein P1234 nsP2 protease domain; enzyme activity, inhibitor, FRET; 90 min, 30 min preincubation): 8400 ± 1500 nM

CCC(C(=O)Nc1ccccc1OC)n1c(SCc2ccc(F)cc2)nc2ncccc21 (centres unmarked)
IC50 (Replicase polyprotein 1ab, papain-like protease (rep, Severe acute respiratory syndrome-related coronavirus, UniProt P0C6X7); enzyme activity): > 20000 nM

Cn1cnc(Cn2c(=O)[nH]/c(=N\c3cc4cn(C)nc4cc3Cl)n(Cc3cc(F)c(F)cc3F)c2=O)n1
IC50 (Cytochrome P450 2C9 (CYP2C9, Homo sapiens, UniProt P11712); inhibitor; human liver microsomes; 30 min preincubation, preincubation without NADPH, with: diclofenac 12 µM): > 100000 nM

CCC(C(=O)Nc1cc(NC2CCOCC2)ccc1C)n1cccc2nc(SCc3ccc(F)cc3)nc1-2 (centres unmarked)
IC50 (Replicase polyprotein 1ab, papain-like protease (rep, Middle East respiratory syndrome-related coronavirus, UniProt K9N7C7); enzyme activity, inhibitor): > 100000 nM

CC[C@H](C)[C@H](NC(=O)[C@H](CC(C)C)NC(=O)[C@H](Cc1c[nH]c2ccccc12)NC(=O)[C@H](CCC(N)=O)NC(=O)[C@@H](NC(=O)[C@H](Cc1ccccc1)NC(=O)[C@H](C)NC(=O)[C@H](CCCCNC(=O)COCCOCCNC(=O)COCCOCCNC(=O)CC[C@H](NC(=O)CCCCCCCCCCCCCCCCCCC(=O)O)C(=O)O)NC(=O)[C@H](CCC(N)=O)NC(=O)[C@H](C)NC(=O)[C@@H](NC(=O)[C@H](CCCCN)NC(=O)[C@H](CC(=O)O)NC(=O)[C@H](CC(C)C)NC(=O)C(C)(C)NC(=O)[C@@H](NC(=O)[C@H](CO)NC(=O)[C@H](Cc1ccc(O)cc1)NC(=O)[C@H](CC(=O)O)NC(=O)[C@H](CO)NC(=O)[C@@H](NC(=O)[C@H](Cc1ccccc1)NC(=O)[C@@H](NC(=O)CNC(=O)[C@H](CCC(=O)O)NC(=O)C(C)(C)NC(=O)[C@@H](N)Cc1ccc(O)cc1)[C@@H](C)O)[C@@H](C)O)[C@@H](C)CC)[C@@H](C)CC)C(C)C)C(=O)N[C@@H](C)C(=O)NCC(=O)NCC(=O)N1CCC[C@H]1C(=O)N[C@@H](CO)C(=O)N[C@@H](CO)C(=O)NCC(=O)N[C@@H](C)C(=O)N1CCC[C@H]1C(=O)N1CCC[C@H]1C(=O)N1CCC[C@H]1C(=O)N[C@@H](CO)C(N)=O
subjects with adverse event (measured: treatment-emergent upper respiratory tract infection; healthy subjects; 4.5 mg, multiple ascending dose): 0%

C[C@H]1CC[C@@]2(OC1)O[C@H]1C[C@H]3[C@@H]4CC[C@@H]5C[C@@H](O[C@@H]6O[C@H](CO)[C@H](O)[C@H](O)[C@H]6O[C@@H]6O[C@H](CO)[C@@H](O)[C@H](O)[C@H]6O)CC[C@]5(C)[C@H]4CC[C@]3(C)[C@H]1[C@@H]2C
Kd (Spike glycoprotein; binding, BLI): 13400 nM

CCC(C(=O)Nc1ccccc1C)n1cccc2nc(S(=O)(=O)Cc3ccc(F)cc3)nc1-2 (centres unmarked)
IC50 (Replicase polyprotein 1ab, papain-like protease (rep, Middle East respiratory syndrome-related coronavirus, UniProt K9N7C7); enzyme activity, inhibitor): > 100000 nM

COc1cc2c3cc1Oc1cc(ccc1O)C[C@@H]1c4c(cc(OC)c(O)c4Oc4ccc(cc4)C[C@@H]3N(C)CC2)CC[N+]1(C)C
IC50 (Chrnd/Chrna1/Chrne (Mus musculus, UniProt P02716+P04756+P20782); endplate current amplitude, two-electrode voltage clamp; mouse given myasthenia patient IgG 2 d, mouse hemidiaphragm; membrane potential -80 mV, with: paraoxon): 186 nM

CC(C)[C@H](NC(=O)[C@@H]1CCCN1C(=O)[C@H](CCC(=O)O)NC(=O)[C@H](CCCCN)NC(=O)[C@H](CO)NC(=O)[C@H](CC(=O)O)NC(=O)CNC(=O)[C@@H](N)Cc1ccccc1)C(=O)N1CCC[C@H]1C(=O)N[C@@H](Cc1ccc(O)cc1)C(=O)O
IC50 (HLA class I histocompatibility antigen, A alpha chain, allele A*01:01 (Homo sapiens, UniProt P04439); biochemical): 134 nM

CCC(C(=O)Nc1cc(NC2CNC2)ccc1C)n1cc(F)cc2nc(SCc3ccc(F)cc3)nc1-2 (centres unmarked)
IC50 (Replicase polyprotein 1ab, papain-like protease (rep, Severe acute respiratory syndrome-related coronavirus, UniProt P0C6X7); enzyme activity): 213 ± 30 nM

NC(=O)CI
IC50 (Polyprotein P1234 nsP2 protease domain; protease activity, inhibitor, FRET; 90 min, 30 min preincubation): 15000 nM and 20000 nM

CCC(C(=O)Nc1cc(NC2CCNC2)ccc1C)n1cccc2nc(SCc3ccc(F)cc3)nc1-2 (centres unmarked)
IC50 (Replicase polyprotein 1ab, papain-like protease (rep, Severe acute respiratory syndrome-related coronavirus, UniProt P0C6X7); enzyme activity): 144 ± 37 nM

CC[C@H](C)[C@H](NC(=O)[C@H](CC(C)C)NC(=O)CNC(=O)[C@H](CCCNC(=N)N)NC(=O)[C@H](CC(C)C)NC(=O)[C@@H](NC(=O)[C@H](CCSC)NC(=O)[C@@H]1CCCN1C(=O)CN)C(C)C)C(=O)N[C@H](C(=O)O)[C@@H](C)O
IC50 (HLA class I histocompatibility antigen, B alpha chain (Homo sapiens, UniProt P01889); binding, competitor): 14300 nM
